Measured values of several laboratories.
Every numbered part comes from another study and shows a few of its results, in no order. Positions count from the first letter of the parent shown.

Set 1
Target: Sal-like protein 4, full length isoform A (SALL4, Homo sapiens, UniProt Q9UJQ4, residues 1-1053)
Chain of UniProt Q9UJQ4 (whole entry, looked up): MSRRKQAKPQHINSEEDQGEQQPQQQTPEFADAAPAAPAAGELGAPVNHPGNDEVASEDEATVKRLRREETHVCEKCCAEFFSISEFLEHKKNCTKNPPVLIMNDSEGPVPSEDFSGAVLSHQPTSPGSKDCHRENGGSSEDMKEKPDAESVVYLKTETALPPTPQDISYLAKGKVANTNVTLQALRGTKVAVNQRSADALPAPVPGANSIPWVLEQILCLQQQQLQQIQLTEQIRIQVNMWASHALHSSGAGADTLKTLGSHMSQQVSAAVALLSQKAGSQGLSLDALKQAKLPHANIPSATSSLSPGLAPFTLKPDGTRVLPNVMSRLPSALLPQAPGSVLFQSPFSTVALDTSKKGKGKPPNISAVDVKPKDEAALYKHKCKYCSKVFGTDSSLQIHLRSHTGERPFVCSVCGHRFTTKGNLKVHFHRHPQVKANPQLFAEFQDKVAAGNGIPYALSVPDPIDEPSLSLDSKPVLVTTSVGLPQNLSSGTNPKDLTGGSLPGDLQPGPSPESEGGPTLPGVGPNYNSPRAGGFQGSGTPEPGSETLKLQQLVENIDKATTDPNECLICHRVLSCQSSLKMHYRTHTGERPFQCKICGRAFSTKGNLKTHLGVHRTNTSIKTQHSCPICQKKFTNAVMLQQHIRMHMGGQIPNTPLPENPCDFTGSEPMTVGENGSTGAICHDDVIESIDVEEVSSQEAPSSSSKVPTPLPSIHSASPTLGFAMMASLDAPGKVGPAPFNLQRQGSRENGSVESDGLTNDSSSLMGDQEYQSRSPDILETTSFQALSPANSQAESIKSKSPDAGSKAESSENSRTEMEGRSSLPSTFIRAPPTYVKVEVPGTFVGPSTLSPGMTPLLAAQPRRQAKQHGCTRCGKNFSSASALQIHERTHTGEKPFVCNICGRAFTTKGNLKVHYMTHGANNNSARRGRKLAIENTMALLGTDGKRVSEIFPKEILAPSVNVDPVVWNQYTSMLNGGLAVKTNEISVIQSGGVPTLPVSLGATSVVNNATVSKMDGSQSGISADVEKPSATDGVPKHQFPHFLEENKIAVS
Technique: universal PBM
Molecule type: double-stranded DNA, one strand shown
Matrix: in vitro
Tested at: 600 nM
Setting: 8-mer, flanks averaged, mean of replicates
Reading: higher = stronger binding
Sequence	E-score
ACACTACG	-0.00131
ATCCGCGG	-0.214
ATTACGAG	0.168
TATGTGGA	0.258
TCACCAAA	0.211
AAAGGGCC	-0.263
ATTCCGTG	0.0304
GGCTCCGA	-0.293
GACCAGCC	-0.248
ACATTTTG	0.253
AGTCTGTC	-0.0829
ATCTTTAG	0.078
CATTTCGC	0.0595
CGGGCTAA	-0.224
CGAATGAG	-0.0764
AGCGCGTG	-0.174
GGACATCA	0.0699
CGGTGACA	-0.194
AACGGTCT	-0.107
ACCTTCAA	0.16
GAAGGTGA	-0.0463
GCCAGATA	0.0117
ACTCTAAG	0.109

Set 2
Target: ABI1, truncated, D143A, DHFR fusion (Arabidopsis thaliana)
Technique: DHFR PCA, deep sequencing
Matrix: yeast
Setting: methotrexate growth selection, single substitutions
Added: (+)-ABA 17 µM
Baseline: wild-type fitted maximum
Reading: higher = stronger binding
Starting sequence: PYL1, truncated, DHFR fusion (Arabidopsis thaliana); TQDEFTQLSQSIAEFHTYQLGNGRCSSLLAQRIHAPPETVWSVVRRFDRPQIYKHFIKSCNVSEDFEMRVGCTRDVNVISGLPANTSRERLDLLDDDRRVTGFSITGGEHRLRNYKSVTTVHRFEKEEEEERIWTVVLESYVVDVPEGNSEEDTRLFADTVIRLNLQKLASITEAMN
Change	relative binding score [%]
D95E	57
P37S	49.3
K116Y	13.7
E125D	85.2
D144V	7.69
K58I	24.6
S117D	-5.64
R74L	-11.1
N114L	-6.16
L82K	-15.1
F124I	96.7
F56W	70.5
P50I	-2.82
Q51C	41.5
D65H	82.1
E109F	27.8
N77K	93.5

Set 3
Target: CCNB1, cyclin fold, Cln2 fusion (human)
Technique: yeast growth competition, sequencing
Matrix: yeast
Setting: weak parent motif
Baseline: not given
Reading: higher = stronger binding
Starting sequence: SAMHD1 docking peptide (human); ASKSRVQLFKDDP
Change	normalised enrichment score
ASKSRVMLFKDDP [Q7M]	-0.195
ASKSRVQLFPDDP [K10P]	0.137
ASKMRVQLFKDDP [S4M]	0.603
ASKERVQLFKDDP [S4E]	0.116
ASKSRVQLFKGDP [D11G]	0.0458
ASKSRVQLFKKDP [D11K]	0.394
ASKSRVQLFCDDP [K10C]	0.28
ASKSRVQLFRDDP [K10R]	0.192
ASKSRVQLFKDMP [D12M]	0.102
ASKSRVQLFKEDP [D11E]	0.366
ASKSRVTLFKDDP [Q7T]	0.239
ASKSRVILFKDDP [Q7I]	-0.296
ASKSRVQHFKDDP [L8H]	-0.166
ASKCRVQLFKDDP [S4C]	1.29
ASKSRVQIFKDDP [L8I]	-0.208
ASKSEVQLFKDDP [R5E]	0.216
ASKSRGQLFKDDP [V6G]	0.273
ASKSRVQLFKRDP [D11R]	0.39
AYKSRVQLFKDDP [S2Y]	0.439
ASKSRVQLFKWDP [D11W]	0.0761
ASKSRVQLFKSDP [D11S]	0.85
ASKSRVQFFKDDP [L8F]	0.235
ASWSRVQLFKDDP [K3W]	0.359

Set 4
Target: Hepatocyte nuclear factor 3-alpha (Foxa1, Mus musculus, UniProt P35582, residues 1-468, full length assumed)
Technique: EMSA with sequencing
Molecule type: double-stranded DNA, one strand shown
Matrix: in vitro
Tested at: 10 and 20 nM
Setting: whole designed probe, mean of two concentrations, ends assumed
Baseline: negative control set to 0
Reading: higher = stronger binding
All sequences stand within: GTGAGCGGTGCCCATTGATGGGGAAC … TTTCACTGGGATCGTGGGGAC
Target sequence (chain): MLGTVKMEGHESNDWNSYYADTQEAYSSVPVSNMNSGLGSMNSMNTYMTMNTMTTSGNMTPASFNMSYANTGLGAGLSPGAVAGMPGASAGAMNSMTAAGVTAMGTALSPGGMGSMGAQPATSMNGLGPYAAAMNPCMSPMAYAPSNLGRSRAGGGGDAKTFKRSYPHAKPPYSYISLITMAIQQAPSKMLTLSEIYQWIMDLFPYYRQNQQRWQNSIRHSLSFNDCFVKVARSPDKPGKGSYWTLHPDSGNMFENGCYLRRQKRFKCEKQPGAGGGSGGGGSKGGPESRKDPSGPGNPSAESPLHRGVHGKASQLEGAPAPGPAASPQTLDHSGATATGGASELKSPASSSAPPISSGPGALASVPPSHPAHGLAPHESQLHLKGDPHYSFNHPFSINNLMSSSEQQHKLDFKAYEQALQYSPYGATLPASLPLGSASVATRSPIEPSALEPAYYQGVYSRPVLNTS
Sequence	normalised bound fraction [ratio]
ACTCTGTTCATATGGCACGTTTCCTGCATATCATTCAGCCATTCTTCTCTGACACGTTCTGAGACGGAGACTTACAGGAAATACAGGCCCTGTGTAAACACTTGAAACACAGACAAGCAAATACCCACGAGTCTTTATCGCTCTTGATTCTTGGCACAGTTCCTTGCATGTGGTAGAGGCCTAACAGTTTTTC	0.405
TGGAATTTTATGTTTTCCTGTTATCGCTTTATGTGGAATGCAGAATATAAAAGAAAAATTGAATTAATTGTAAATTAGTAGGATTAAATGCATGTTTACATAGATATTATTGTGGCTGAAATTATAACATGTTAATTTTCCTTTGTGGATATTAAAGTGATTCCCTTCTGAATGACAATATTTTAGGTGGAAA	0.296
ATCTTCCCCCTCTTCCTTGCCCCACCAGCTCACCTACGGGGGTTATTTGCACAAAGGAAAATAAATAAAGCCGGCATTCGTTAACCCTCTTCTGGCGCAAACTGCTGTTTGCTCTGCATGAATCATGGTCCTTACGCGAGGCGTGGCTCCGGGAGAGCAAAGCACCGTGTCAGGCGCATGATCCGGGCTCGCC	0.383
ATCCACGAACCTGGCCCTGTCTGGTAACCACAGTGAACCATCGCAAGATACAGCACTATGTGCCCAGTTGGGCTGGTAATGTCACACAAATGTGTCAACACTGGCACATCCTCAGGGACACGGATAATGACTCACTTTTGGAGAGGGACTAGACCTTCATCCTTGAGGTGAAGAAGATTTTCTCTCCAGGGTG	0.0487
AACCCAGACAGTGACATCTTACAGGGGACTTCTTCTTCTTCCCCCATTGTATGTCTCCTCCTTTTATGTTTATCTAATCTATTCACATAACTATGTAAACAAGTACATTTACTAAAGTTTCTTCATGTTCATAAAATAATAACATACAGAATTATAAAAGTAGAAAGGTAAGGCCAAGCATGGGGGCTCACGC	0.487
ATCTTCCCCCTCTTCCTTGCCCCACCAGCTCACCTTCCCGGGTATCTGCAAATAAGTATTTATTTTCAAGCCGGCATTCGTTAACCCTCTTCTGGCGCAAACTGCTGTTTGCTCTGGATCTAACATGGTCCTTTGGCGACGCCAGGCTCCGGGAGAGCAAAGCACCGTGTCAGGGCCATGATCCGGGGTGGCC	0.204
CCACATCACACTGTTGCCACAAGCAGGATACAGTCATCACACAAACAGAGGATTATTACTTCTCAGCCACTCTTCTGCTATCTTCTTACTGAGTAATCTTCGAGAACTCAGTCCTTTGTGATGTACTAATATGAAACAGGAAAGGGAAAGCCCTAGGTGGCCATGATATAGTTAGTGCCTACGTTTCCAAGAA	-0.0366
CCAGTGGTAAACTGCACGACCATCTGACCTCCCTGAAGTTGCAGCCAAATACAGCACTGAGAATGTATGTGTCCTTTGTGAATATTGCACTTCTTGTTTACTTTGAAGAAGTCCTTTTCCCTGACACTCTAGAAATAAGGAGAAGCCTAGCCCTGGAGAAGAGCTTTACTGATGCCCACTACCACAGAACTGC	0.408

Excerpt of the above (set 2):
Change	relative binding score [%]
N114L	-6.16
L82K	-15.1
F124I	96.7
F56W	70.5
P50I	-2.82
